Measured values collected from several papers.
Every numbered part comes from another study and shows a few of its results, in no order. Positions count from the first letter of the parent shown.

Set 1 — target: CCNA1, cyclin fold, Cln2 fusion (human); method: yeast growth competition, sequencing; sample: yeast; setting: weak parent motif; relative to: not given; direction: higher = stronger binding
Starting sequence: RBL1 docking peptide (human); GSAKRRLFGEDPP
`GSAKRRCFGEDPP [L7C]`: “normalised enrichment score” 0.0443.
`GSAKRRLFGEDPE [P13E]` — result for “normalised enrichment score”: 0.233.
Under “normalised enrichment score”, `GSAKRRLFGEDTP [P12T]` is recorded as 0.749.
Under “normalised enrichment score”, `GSAKRRLFGEDLP [P12L]` is recorded as 0.527.
`GSAKRRLFGEDPR [P13R]` — result for “normalised enrichment score”: 0.664.
For `FSAKRRLFGEDPP [G1F]`, “normalised enrichment score” read 0.921.
For `GSAKRRLFGCDPP [E10C]`, “normalised enrichment score” read 0.631.
Under “normalised enrichment score”, `GSAKRRLFGNDPP [E10N]` is recorded as 0.746.
`GSAKRRLFGVDPP [E10V]`: “normalised enrichment score” 0.256.
Under “normalised enrichment score”, `GSAKRRLFGADPP [E10A]` is recorded as 0.368.
`GSAKRELFGEDPP [R6E]` — result for “normalised enrichment score”: 0.55.
`GSAKRCLFGEDPP [R6C]`: “normalised enrichment score” 0.459.
For `GSAKRRLFGEDDP [P12D]`, “normalised enrichment score” read 0.339.
Under “normalised enrichment score”, `GSAKRRLFIEDPP [G9I]` is recorded as 0.572.
For `GSAKYRLFGEDPP [R5Y]`, “normalised enrichment score” read 0.324.
Under “normalised enrichment score”, `GSAKRRLFGMDPP [E10M]` is recorded as 0.52.
Under “normalised enrichment score”, `GSAKRRLFGEDRP [P12R]` is recorded as 0.665.
Under “normalised enrichment score”, `GSAKKRLFGEDPP [R5K]` is recorded as 0.435.
`GSAKRRLFGEDKP [P12K]`: “normalised enrichment score” 0.7.
Under “normalised enrichment score”, `GSIKRRLFGEDPP [A3I]` is recorded as 0.188.
`KSAKRRLFGEDPP [G1K]`: “normalised enrichment score” 0.458.
Under “normalised enrichment score”, `GSTKRRLFGEDPP [A3T]` is recorded as 0.742.
`GSAKRRLMGEDPP [F8M]`: “normalised enrichment score” 0.13.
`GSAKRRLFGEDFP [P12F]` — result for “normalised enrichment score”: 0.517.
Under “normalised enrichment score”, `GSAFRRLFGEDPP [K4F]` is recorded as 0.47.

Set 2 — method: protein-binding microarray; molecule type: double-stranded DNA, one strand shown; sample: in vitro; tested at: 250 nM; setting: 60-bp whole probe; together with: salmon DNA 0.4 mg/ml; relative to: random background probes; direction: higher = stronger binding; all sequences stand within: GCCTAGCAC … GTCTTGATTCGCTTGACGCTGCTG
Target: Interferon regulatory factor 7, full length, phosphomimetic (IRF7, Homo sapiens, UniProt Q92985, residues 1-503, S101K/S471D/S472D/S475D/S476D/S477D/S483D/S484D/S487D)
UniProt Q92985, sequence (whole entry, unmodified, looked up): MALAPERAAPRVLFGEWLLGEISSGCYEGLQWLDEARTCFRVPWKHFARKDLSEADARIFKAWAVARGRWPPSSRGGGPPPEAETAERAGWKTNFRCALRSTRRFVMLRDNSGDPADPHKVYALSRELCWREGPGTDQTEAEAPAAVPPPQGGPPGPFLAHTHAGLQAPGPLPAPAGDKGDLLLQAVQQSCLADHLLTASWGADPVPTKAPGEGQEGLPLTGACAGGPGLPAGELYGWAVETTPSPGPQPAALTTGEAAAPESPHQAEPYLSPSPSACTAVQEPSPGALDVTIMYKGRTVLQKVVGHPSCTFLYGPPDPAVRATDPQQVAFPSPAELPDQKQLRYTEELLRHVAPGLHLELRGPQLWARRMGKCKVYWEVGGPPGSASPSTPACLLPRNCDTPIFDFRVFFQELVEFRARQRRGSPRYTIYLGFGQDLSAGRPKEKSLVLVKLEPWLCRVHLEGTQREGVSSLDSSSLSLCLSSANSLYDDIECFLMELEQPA
`TTAGGTTTCGACTATCGGGTAGTGCTA` gave a log fluorescence of 5.22 z-score.
`GACGGGCTCGGTCTCGGGACGTGCTAG` gave a log fluorescence of 0.337 z-score.
`GACGGTAACGGTCTCGGGACGTGCTAG` gave a log fluorescence of -0.231 z-score.
With `TCGTATGTGACCTTTTTAAGAGTGCTA` the log fluorescence was 0.88 z-score.
`CACCAGCGAGGGCCCGGGAGGTGCTAG` has a log fluorescence of -0.258 z-score.
`GACGATTTCGGGTATCGAGATGTGCTA` gave a log fluorescence of 1.07 z-score.
For `GACGGCTTCGGGTATCGGGACGTGCTA`, the log fluorescence was -0.192 z-score.
`CCTCTTTTTTGTTCCACGCCGTGCTAG` gave a log fluorescence of 1.44 z-score.
With `GCCGGACTGCTTCTCCTGACGTGCTAG` the log fluorescence was -0.289 z-score.
`GCCGGTATCGGTTTCGGGACGTGCTAG` has a log fluorescence of 6.93 z-score.
`GACGGTATCTGTCTCGGGACGTGCTAG` has a log fluorescence of -0.186 z-score.
With `TTAGGTATGGGGACTGGGTTAGTGCTA` the log fluorescence was -0.412 z-score.
The log fluorescence of `GACGGACTGGGTATCGAGACGTGCTAG` is reported as -0.21 z-score.
`TTTTTTTTACTTCGGGTGACGTGCTAG` gave a log fluorescence of 0.633 z-score.
With `TTAGATTTCATACTGGATTAGTGCTAG` the log fluorescence was 0.12 z-score.
For `GACGGACTGGGGTTGCGGGACGTGCTA`, the log fluorescence was -0.563 z-score.
For `TCAGATTTTGGTCTTTCACTGTGCTAG`, the log fluorescence was 0.0159 z-score.
`AACGGACTGGGACTGGGGACGTGCTAG` has a log fluorescence of -0.465 z-score.
The log fluorescence of `TTAGGTTTCCTACTGCATTAGTGCTAG` is reported as 1.25 z-score.

Set 3 — method: competition protein-binding microarray; molecule type: double-stranded DNA, one strand shown; sample: in vitro; tested at: 2 µM; together with: Cbf1 competitor, 0.05 µM; direction: higher = stronger binding; all sequences stand within: … GTCTTGATTCGCTTGACGCTGCTG
Target: Phosphate system positive regulatory protein PHO4, full length, GST-tagged (PHO4, Saccharomyces cerevisiae, UniProt P07270, residues 1-312)
Setting: whole 60-bp probe, lowest competitor level
Construct (chain): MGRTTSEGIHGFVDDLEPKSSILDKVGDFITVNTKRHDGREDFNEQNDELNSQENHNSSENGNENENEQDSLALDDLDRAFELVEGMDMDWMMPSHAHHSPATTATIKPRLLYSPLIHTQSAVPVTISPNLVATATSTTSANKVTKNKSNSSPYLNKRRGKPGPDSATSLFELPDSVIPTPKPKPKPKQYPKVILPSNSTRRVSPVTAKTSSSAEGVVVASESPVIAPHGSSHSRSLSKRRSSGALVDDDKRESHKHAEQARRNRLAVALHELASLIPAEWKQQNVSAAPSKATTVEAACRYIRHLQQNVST
With `TCCCAAGGCCACCGTCACGATTGAAGGTTCCCGGTC` the fluorescence intensity was 3810 a.u.
`CCCGTTCGCTAACCAAGCGTGGGACAAGAGTTTAGG` has a fluorescence intensity of 7290 a.u.
`CTTCTGTAAATTTGCCCGGTGGGTGGACGCGCCCCG` gave a fluorescence intensity of 3730 a.u.
With `CCGCCCTTCTTCCGTCCCGTGCGGAAGGGGGGCGCG` the fluorescence intensity was 6010 a.u.
`CCTCTGAGAGCGAGTCACGGCCCGCTGAAGGGAAAG` has a fluorescence intensity of 3100 a.u.
`CGTCCTAGTGATTGTATGGTGGGTGCCATGAGGAAG` has a fluorescence intensity of 7550 a.u.
The fluorescence intensity of `CGGGCTGCCCCGGGTCACGTGACTCGGACACCGCCC` is reported as 10700 a.u.
For `GTCTTGTCTCATTGTCACCCCACTTTCCCCACTTCA`, the fluorescence intensity was 4680 a.u.
`AATTTTTTTCTTCGGCACGTCATACACCTTGTAATG` gave a fluorescence intensity of 6070 a.u.
The fluorescence intensity of `AACTCCAAATATCTTCACGTGGCTGCCTGTTCTAAA` is reported as 15500 a.u.
With `TTGACCCAACTCGGCCACGTGGGTAGTTTTGCCATC` the fluorescence intensity was 18100 a.u.
`ATATATAAAGTGCGTAATGTGCGTACTAAAAAAGCT` gave a fluorescence intensity of 5690 a.u.
For `GTCCCCAGCGTACAAACCGTGACGGTTACCGAAAGC`, the fluorescence intensity was 4400 a.u.
The fluorescence intensity of `CGTTTGTAATACCATCACGTGCAAAATCTTCTCTTC` is reported as 14800 a.u.
With `TGCGCAACAACTTGGATAGTGGGTGTATGTCTAGAA` the fluorescence intensity was 4640 a.u.
`AAAGCGGTAATTTTTCACGTGCACTCACATATCTAT` has a fluorescence intensity of 14500 a.u.

Set 4 — method: protein binding microarray; molecule type: double-stranded DNA, one strand shown; sample: in vitro; tested at: not given; relative to: not given; direction: higher = stronger binding
Target: Histone acetyltransferase KAT6A, winged helix 1, GST fusion (KAT6A, Homo sapiens, UniProt Q92794, residues 1-85)
Setting: 8-mer, flanks averaged, mean of 2 arrays, mostly near background
Residues (chain): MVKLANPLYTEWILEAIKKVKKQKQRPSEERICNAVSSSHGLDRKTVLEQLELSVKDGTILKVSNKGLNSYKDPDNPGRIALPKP
`AAGGGTGT` has an E-score of -0.191.
For `TGGCACCA`, the E-score was -0.183.
For `CCCTAACA`, the E-score was -0.068.
`CAAGATAA` gave an E-score of -0.192.
With `ACCAGGTC` the E-score was 0.0858.
`TCTACTAA` gave an E-score of -0.0188.
`CCTTAACA` has an E-score of -0.0591.
`ATTCTCTA` has an E-score of -0.106.
With `AAGAGCTA` the E-score was -0.0769.
The E-score of `AAGAGCCT` is reported as -0.0923.
`AAACATTA` has an E-score of 0.0705.
With `AAAGTCCT` the E-score was -0.111.
The E-score of `CCTGTCGC` is reported as 0.16.
With `GTCCGTGA` the E-score was 0.191.
For `ATGTGGAG`, the E-score was -0.204.
For `AATGAACG`, the E-score was -0.0833.
For `ATAACCAG`, the E-score was -0.186.
The E-score of `GGCGGCCC` is reported as 0.415.
`TCCAAAGA` has an E-score of -0.227.
`ACGTATAA` gave an E-score of 0.022.
With `TAGACCTA` the E-score was -0.0265.
`CGCCCGAC` has an E-score of 0.437.
For `AAGGAGAG`, the E-score was -0.18.

For quick reference, copied from above (set 1):
`GSAKRELFGEDPP [R6E]` — result for “normalised enrichment score”: 0.55.
`GSAKRCLFGEDPP [R6C]`: “normalised enrichment score” 0.459.
For `GSAKRRLFGEDDP [P12D]`, “normalised enrichment score” read 0.339.
Under “normalised enrichment score”, `GSAKRRLFIEDPP [G9I]` is recorded as 0.572.
For `GSAKYRLFGEDPP [R5Y]`, “normalised enrichment score” read 0.324.
Under “normalised enrichment score”, `GSAKRRLFGMDPP [E10M]` is recorded as 0.52.
Under “normalised enrichment score”, `GSAKRRLFGEDRP [P12R]` is recorded as 0.665.
Under “normalised enrichment score”, `GSAKKRLFGEDPP [R5K]` is recorded as 0.435.
`GSAKRRLFGEDKP [P12K]`: “normalised enrichment score” 0.7.
Under “normalised enrichment score”, `GSIKRRLFGEDPP [A3I]` is recorded as 0.188.
`KSAKRRLFGEDPP [G1K]`: “normalised enrichment score” 0.458.
